Experimental data from different studies.
Each line is one published result; not all experiments were run side by side. ± gives the spread as reported.

CCCC[C@@H]1NC(=O)[C@@H](NC(=O)[C@H](CCC(=O)O)NC(=O)CNC(=O)CN2CCN(CC(=O)O)CCN(CC(=O)O)CCN(CC(=O)O)CC2)CCCCNC(=O)C[C@@H](C(N)=O)NC(=O)[C@H](C(C)C)NC(=O)[C@@H]2CCCN2C(=O)[C@H](CCCNC(=N)N)NC(=O)CNC(=O)[C@H](Cc2c[nH]c3ccccc23)NC(=O)[C@H](CCCNC(=N)N)NC(=O)[C@@H](Cc2ccccc2)NC(=O)[C@H](Cc2c[nH]cn2)NC(=O)[C@H](CCC(=O)O)NC1=O [indium-111 labelled]  tissue uptake (normal C57 mice, bone; intravenous, 0.037 MBq, 2 h): 0.03 ± 0.01 %ID/g
CCCSc1nc(N[C@@H]2C[C@H]2c2ccc(F)c(F)c2)c2nnn([C@@H]3C[C@H](OCCO)[C@@H](O)[C@H]3O)c2n1  AUC (female Wistar Han rats, plasma; oral, 20 mg/kg/day, week 26, carcinogenicity study): 23.2 µM·h
CC1(C)CC[N+](C)(CC(=O)OC2CCCCCCCCCCC2)CC1.[I-]  half-life (metabolic stability; human, liver microsomes; 1 µM, pH 7.4): < 2 min
Cn1c(=O)c2c(ncn2Cc2nnc(SCC(=O)Nc3ccc(Cl)cc3)n2-c2ccccc2)n(C)c1=O  haemolysis (bovine erythrocytes; 1 mg/mL, 30 min, pH 7.4, 37 °C): 7.2%
COc1ccc(-c2cc(=O)c3c(OC)c(OC)c(OC)c(OC)c3o2)cc1  tissue to peel content ratio (C57BL/6 mouse, male, small intestine; oral, 1% w/w in diet, 6 weeks, orange peel extract diet; reference: content in orange peel): 2.98%
COc1ccc2cc3[n+](cc2c1OC)CCc1cc2c(cc1-3)OCO2  measured concentration (rat plasma QC sample; 0.5 ng/mL nominal, 15 days, -80 °C, low QC level storage stability): 0.56 ± 0.06 ng/mL
CCN(CC)CCNC(=O)c1c(C)[nH]c(/C=C2\C(=O)Nc3ccc(F)cc32)c1C  maximum trough plasma concentration (human, plasma; oral, 20 mg/m2, day 28): 86.2 ng/mL
Cc1nc2cccc(OCC(C)(C)C(=O)NC(C)C)c2c(N)c1C(=O)O  AUC(0-t) (male Sprague-Dawley rat, plasma; oral, 30 mg/kg, single dose): 90.8 ng·h/mL
CN(CCC(=O)O)C(=O)c1ccc2c(c1)CC[C@@H]1[C@@H]2CC[C@]2(C)C(c3cncc(F)c3)=CC[C@@H]12  exposure margin (refers to: unbound AUC(0-24) steady state; Wistar rat, female; 70 mg/kg; reference: animal over human at 60 mg BID): ~21 fold
CN1CC[C@@H](NC(=O)Nc2ccc(C#N)cc2)C[C@@H]1c1nc2ccccc2[nH]1  unbound Cmax (human, moderate hepatic impairment, plasma; oral, 100 mg, single dose, fasted): 75.8 ± 19.2 ng/mL
CN[C@H](CC(C)C)C(=O)N[C@H]1C(=O)N[C@@H](CC(N)=O)C(=O)N[C@H]2C(=O)N[C@H]3C(=O)N[C@H](C(=O)N[C@H](C(=O)O)c4cc(O)cc(O)c4-c4cc3ccc4O)[C@H](O)c3ccc(c(Cl)c3)Oc3cc2cc(c3O[C@@H]2O[C@H](CO)[C@@H](O)[C@H](O)[C@H]2O[C@H]2C[C@](C)(N)[C@H](O)[C@H](C)O2)Oc2ccc(cc2Cl)[C@H]1O  time above MIC (pig (Danish Landrace), plasma, free concentration; iv infusion, 1000 mg over 100 min, MIC 2.0 µg/mL, together with: meropenem co-administered): 448 min
CC(C)C[C@@H]1NC(=O)CN(C)C(=O)[C@H](Cc2ccccc2)NCc2ccc(n2C)CNC1=O  Papp (PAMPA; 100 µM, 17 h, pH 6.4): 1.17 ×10⁻⁶ cm/s
O=C(CCCCCCC(=O)Nc1ccccc1)NO  AUC(0-7 h) (patients, serum; oral, 1000 mg, cycle -1 day 2, alone): 37.5 µM·h
COc1ccc(-c2cc(=O)c3cc(OC)c(OC)c(OC)c3o2)cc1OC  tissue to peel content ratio (C57BL/6 mouse, male, feces; oral, 1% w/w in diet, 6 weeks, orange peel extract diet; reference: content in orange peel): 65.9%
CC[C@H](C)[C@@H]1NC(=O)[C@H](Cc2ccc(O)cc2)NC(=O)[C@@H](N)CSSC[C@@H](C(=O)N2CCC[C@H]2C(=O)N[C@@H](CC(C)C)C(=O)NCC(N)=O)NC(=O)[C@H](CC(N)=O)NC(=O)[C@H](CCC(N)=O)NC1=O  half-life (microdialysis, radioimmunoassay; C57BL/6J male mice, wild type, hippocampus extracellular fluid; intraperitoneal, 12 µg total, time to half of Cmax): 20.1 ± 4.5 min
CC(/C=C/C=C(\C)C(=O)O)=C\C=C\C=C(C)\C=C\C=C(/C)C(=O)O  Tmax (female Wistar rat, plasma; oral, 20 mg/kg): ~30 min
O=C1C=Cc2c(c(-c3ccco3)cn2S(=O)(=O)c2ccccc2)C1=O  kinetic solubility (LC-MS; PBS, 20% DMSO; 2 h): 31.2 µM
CN(C)C(=N)N=C(N)N  hepatocyte vacuolization score (Sprague-Dawley rat, male, liver; oral, 100 mg/kg, 24 h, single low dose; direction not given): 0
CC(C)=CCC[C@](C)(O[C@@H]1O[C@H](CO)[C@@H](O)[C@H](O)[C@H]1O)[C@H]1CC[C@]2(C)[C@@H]1[C@H](O)C[C@@H]1[C@@]3(C)CC[C@H](O)C(C)(C)[C@@H]3[C@@H](O[C@@H]3O[C@H](CO)[C@@H](O)[C@H](O)[C@H]3O)C[C@]12C  post-preparative stability accuracy (rat, extracted tissue homogenate QC samples; 0.05 µg/mL, 24 h, 15 °C, autosampler): 95.6 ± 7.5%
C[C@H]1Oc2cc(cnc2N)-c2c(nn(C)c2C#N)CN(C)C(=O)c2ccc(F)cc21  maximum induced clearance (human (NSCLC and healthy); oral, PopPK, steady state): 242 mL/min
Cc1cc(Nc2cc3ncccc3c(N[C@@H]3C[C@H]4CC[C@@H](C3)N4CCC#N)n2)n[nH]1  tissue/plasma ratio (Balb/c mouse, male, colon; oral, 10 mg/kg, Cmax based; reference: colon over plasma): 2640
CNCc1ccc(-c2[nH]c3cc(F)cc4c3c2CCNC4=O)cc1  volume of distribution (human cancer patients, plasma; intravenous, 4 mg/m2, day 1, together with: temozolomide 100): 401 L
COc1cc2c(cc1OC)[C@@H]1Cc3ccc(OC)c(OC)c3CN1CC2  measured concentration (rat plasma QC sample; 2 ng/mL nominal, 15 days, -80 °C, low QC level storage stability): 1.98 ± 0.1 ng/mL
Cn1c(-c2ccc(C(N)=O)cc2F)nnc1C(C)(C)Oc1c(F)cc(Cl)cc1F  AUC(0-inf) median (young non-Japanese subjects, plasma; oral, 50 mg single dose, day 1): 7180 ng·h/mL
CC(C)C[C@H](NC(=O)[C@H](CC(C)C)NC(=O)[C@@H](NC(=O)[C@H](Cc1ccccc1)NC(=O)[C@@H](Cc1c[nH]c2ccccc12)NC(=O)[C@@H](N)CCCCN)[C@H](c1ccccc1)c1c[nH]c2ccccc12)C(N)=O  HPLC retention (RP-HPLC Jupiter Proteo; acetonitrile/water TFA gradient): 55.3 %B
CCCC[C@H](NC(C)=O)C(=O)N[C@H]1CCC(=O)NC[C@@H](C(=O)N[C@@H](Cc2c[nH]c3ccccc23)C(N)=O)NC(=O)[C@H](CCCNC(=N)N)NC(=O)[C@@H](Cc2ccccc2)NC(=O)[C@H](Cc2c[nH]cn2)NC1=O  AUC(0-inf) (male Sprague-Dawley rat, plasma; subcutaneous, 5 mg/kg, multiple doses, once daily): 5160 ng·h/mL
CC(C)[C@H](NC(=O)[C@@H]1CCCN1C(=O)[C@H](CCCNC(=N)N)NC(=O)[C@H](CS)NC(=O)[C@H](Cc1c[nH]c2ccccc12)NC(=O)[C@H](CCCNC(=N)N)NC(=O)[C@@H](Cc1ccccc1)NC(=O)[C@H](Cc1c[nH]cn1)NC(=O)[C@H](CCC(=O)O)NC(=O)[C@H](CS)NC(=O)[C@H](CS)NC(=O)[C@H](CCCCN)NC(=O)[C@@H]1CC(=O)N[C@@H](CCCNC(=N)N)C(=O)N[C@@H]([C@@H](C)O)C(=O)N[C@@H](CC(=O)O)C(=O)N[C@H](Cc2ccc(O)cc2)C(=O)N1)C(N)=O [technetium-99m labelled]  tissue uptake (C57 mouse, female, B16/F1 melanoma, spleen; intravenous, 2 h, together with: NDP-MSH 10 µg co-injected): 0.64 ± 0.37 %ID/g
C[C@@H](Oc1ccc(S(C)(=O)=O)cc1C(=O)N1C[C@@H]2C[C@]2(c2cc(C(F)(F)F)on2)C1)C(F)(F)F  absolute bioavailability (human, fasted; oral, 25 mg, tablet vs IV microtracer): 71.6%
Cc1ccc(NC(=O)c2ccc(CN3CCN(C)CC3)cc2)cc1Nc1nccc(-c2cncc(-c3oncc3C)c2)n1  dose-normalised AUC(0-inf) (Parkinson's disease patients, plasma; oral, 100 mg once daily, day 1, 7-day dosing, mean): 687 ng·h/mL/mg
CS(=O)(=O)Nc1ccc(C(=O)O[C@@H](Cc2c(Cl)c[n+]([O-])cc2Cl)c2ccc(OC(F)F)c(OCC3CC3)c2)cc1OCC1CC1  Cmax (human, plasma; inhaled, 100 µg once daily, day 1, single-dose dry powder inhaler): 0.0654 ng/mL
COc1c(O)cc2oc3cc(O)cc(O)c3c(=O)c2c1C/C=C(\C)CCC=C(C)C  AUC(24 h-inf) (UHPLC, non-compartmental; mice, plasma; oral, 700 mg/kg, virgin coconut oil suspension): 420 ± 160 ng·h/mL
C=CC(=O)N(C)CCOc1c(N)ncnc1-c1cc(F)cc(NC(=O)c2ccc(C3CC3)cc2F)c1C  subjects with serious adverse event (refers to: syncope; human, multiple ascending dose; oral, 25 mg, 12 days): 1.6%
COC(=O)N[C@H](C(=O)N[C@@H](Cc1ccccc1)[C@@H](O)CN(Cc1ccc(-c2ccccn2)cc1)NC(=O)[C@@H](NC(=O)OC)C(C)(C)C)C(C)(C)C  Vd/F (population PK model; pregnant women, postpartum; oral, median, together with: without tenofovir): 113 L
Cc1[nH]c(=O)c(CNC(=O)c2ccc(N(C)C)o2)c2c1CCCC2  kinetic solubility (U-HPLC; 20% DMSO in water): 97.4 µg/mL
FC(F)(F)c1cccc(Nc2ncnc3ccccc23)c1  logP (potentiometric titration; 1-octanol/water, 0.15 M KCl; ionic species, initial protocol): 1.38
Cc1cnc(NC(=O)C2=C(O)c3ccccc3S(=O)(=O)N2C)s1  hepatocyte vacuolization score (Sprague-Dawley rat, male, liver; oral, 0.4 mg/kg, 6 h, single low dose; direction not given): 0
CC1=C2C[C@H]3[C@@H](CC[C@@H]4C[C@H](NS(C)(=O)=O)CC[C@@]43C)[C@@H]2CC[C@@]2(C1)O[C@@H]1C[C@H](C)CN[C@H]1[C@H]2C  AUC(0-24) (patients, plasma; oral, 30 mg single, day -7, cycle 1): 68.3 ng·h/mL
CCO[C@H](COc1ccc(C(F)(F)F)cc1)CSc1ccc(OCC(=O)O)c(C)c1  tissue/plasma ratio (Sprague Dawley rat, dyslipidemic, fed; oral, highest dose, 8 h; reference: liver over plasma): 535
CC(=O)N[C@@H](CCCCN)C(=O)N[C@@H](CCCCN)C(=O)N[C@@H](CCCNC(=N)N)C(=O)N[C@@H](Cc1ccc(O)cc1)C(=O)N[C@@H](CC(=O)O)C(=O)N[C@@H](CCCNC(=N)N)C(=O)N[C@@H](CCC(=O)O)C(=O)N[C@@H](Cc1ccccc1)C(=O)N[C@@H](CC(C)C)C(=O)N[C@@H](CC(C)C)C(=O)NCC(=O)N[C@@H](Cc1ccccc1)C(=O)N[C@@H](CCC(N)=O)C(=O)N[C@@H](Cc1ccccc1)C(N)=O  helicity (CD spectroscopy; sodium phosphate buffer; 25 to 100 µM, pH 7.4, 25 °C): 2.5%
Cc1cnc(-c2ccnc(C(C)(C)O)n2)cc1-n1c(C)cc(OCc2ncc(F)cc2F)c(Cl)c1=O  quantifiable plasma duration (human, plasma; oral, other than 30, 50, 100 mg, LLOQ 0.5 ng/mL): 48 h
Clc1ccc(Nc2nnc(Cc3ccncc3)c3ccccc23)cc1  intratumoral concentration (MALDI-MSI; female Balb/c mouse, C26 tumor, subcutaneous C26 tumor; oral, 100 mg/kg for two weeks, 2 h): 178 nM
C[C@H](N)C(=O)N[C@H](Cc1c[nH]c2ccccc12)C(=O)N[C@@H](Cc1ccccc1)C(=O)N[C@H](C(=O)N1CCC(C(N)=O)CC1)[C@H](c1ccccc1)c1c[nH]c2ccccc12  HPLC retention (RP-HPLC Jupiter Proteo; acetonitrile/water TFA gradient): 52 %B
CC(C)=CCC[C@](C)(O[C@@H]1O[C@H](CO)[C@@H](O)[C@H](O)[C@H]1O)[C@H]1CC[C@]2(C)[C@@H]1[C@H](O)C[C@@H]1[C@@]3(C)CC[C@H](O)C(C)(C)[C@@H]3[C@@H](O[C@@H]3O[C@H](CO)[C@@H](O)[C@H](O)[C@H]3O[C@@H]3O[C@@H](C)[C@H](O)[C@@H](O)[C@H]3O)C[C@]12C  post-preparative stability accuracy (rat, extracted plasma QC samples; 1.0 µg/mL, 24 h, 15 °C, autosampler): 92.1 ± 6.5%
C[C@]12CC[C@@H]3c4ccc(O)cc4CC[C@H]3[C@@H]1C[C@@H](O)[C@@H]2O  median serum concentration (GC-MS; breast cancer women on NSAI, serum; vaginal, 0.03 mg, 8 h, day 0): 0 ng/mL

Some of these lines once more:
CC(C)C[C@H](NC(=O)[C@H](CC(C)C)NC(=O)[C@@H](NC(=O)[C@H](Cc1ccccc1)NC(=O)[C@@H](Cc1c[nH]c2ccccc12)NC(=O)[C@@H](N)CCCCN)[C@H](c1ccccc1)c1c[nH]c2ccccc12)C(N)=O  HPLC retention (RP-HPLC Jupiter Proteo; acetonitrile/water TFA gradient): 55.3 %B
CN(CCC(=O)O)C(=O)c1ccc2c(c1)CC[C@@H]1[C@@H]2CC[C@]2(C)C(c3cncc(F)c3)=CC[C@@H]12  exposure margin (refers to: unbound AUC(0-24) steady state; Wistar rat, female; 70 mg/kg; reference: animal over human at 60 mg BID): ~21 fold
CCO[C@H](COc1ccc(C(F)(F)F)cc1)CSc1ccc(OCC(=O)O)c(C)c1  tissue/plasma ratio (Sprague Dawley rat, dyslipidemic, fed; oral, highest dose, 8 h; reference: liver over plasma): 535
CN(C)C(=N)N=C(N)N  hepatocyte vacuolization score (Sprague-Dawley rat, male, liver; oral, 100 mg/kg, 24 h, single low dose; direction not given): 0
CC(C)=CCC[C@](C)(O[C@@H]1O[C@H](CO)[C@@H](O)[C@H](O)[C@H]1O)[C@H]1CC[C@]2(C)[C@@H]1[C@H](O)C[C@@H]1[C@@]3(C)CC[C@H](O)C(C)(C)[C@@H]3[C@@H](O[C@@H]3O[C@H](CO)[C@@H](O)[C@H](O)[C@H]3O)C[C@]12C  post-preparative stability accuracy (rat, extracted tissue homogenate QC samples; 0.05 µg/mL, 24 h, 15 °C, autosampler): 95.6 ± 7.5%
CN1CC[C@@H](NC(=O)Nc2ccc(C#N)cc2)C[C@@H]1c1nc2ccccc2[nH]1  unbound Cmax (human, moderate hepatic impairment, plasma; oral, 100 mg, single dose, fasted): 75.8 ± 19.2 ng/mL
